# Results from different studies.
# Lines come from different studies, so protocols differ. Several values in a cell are separate wells, animals, samples, runs or records. ± gives the spread as reported.
# lasR: Transcriptional activator protein LasR (lasR, Pseudomonas aeruginosa, UniProt P25084)
# Sequence of UniProt P25084 (whole entry, looked up): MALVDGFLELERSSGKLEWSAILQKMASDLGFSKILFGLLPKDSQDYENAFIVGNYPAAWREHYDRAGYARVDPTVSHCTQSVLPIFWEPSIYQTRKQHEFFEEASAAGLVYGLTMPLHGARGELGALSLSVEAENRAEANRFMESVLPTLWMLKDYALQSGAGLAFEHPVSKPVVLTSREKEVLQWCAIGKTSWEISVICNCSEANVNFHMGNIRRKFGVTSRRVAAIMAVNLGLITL
# Oprm1: Mu-type opioid receptor (Oprm1, Rattus norvegicus, UniProt P33535)
# Sequence of UniProt P33535 (whole entry, looked up): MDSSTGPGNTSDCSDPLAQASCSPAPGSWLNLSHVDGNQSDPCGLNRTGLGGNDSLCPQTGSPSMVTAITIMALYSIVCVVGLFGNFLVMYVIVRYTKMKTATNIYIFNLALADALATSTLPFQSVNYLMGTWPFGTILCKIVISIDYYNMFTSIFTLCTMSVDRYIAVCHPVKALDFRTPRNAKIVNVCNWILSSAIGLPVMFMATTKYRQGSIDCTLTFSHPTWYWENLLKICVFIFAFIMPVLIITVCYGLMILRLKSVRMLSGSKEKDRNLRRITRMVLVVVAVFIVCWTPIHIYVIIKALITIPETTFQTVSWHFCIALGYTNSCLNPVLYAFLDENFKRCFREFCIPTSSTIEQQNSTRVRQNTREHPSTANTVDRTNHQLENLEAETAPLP
# KEAP1: Kelch-like ECH-associated protein 1 (KEAP1, Homo sapiens, UniProt Q14145)
# Sequence of UniProt Q14145 (whole entry, looked up): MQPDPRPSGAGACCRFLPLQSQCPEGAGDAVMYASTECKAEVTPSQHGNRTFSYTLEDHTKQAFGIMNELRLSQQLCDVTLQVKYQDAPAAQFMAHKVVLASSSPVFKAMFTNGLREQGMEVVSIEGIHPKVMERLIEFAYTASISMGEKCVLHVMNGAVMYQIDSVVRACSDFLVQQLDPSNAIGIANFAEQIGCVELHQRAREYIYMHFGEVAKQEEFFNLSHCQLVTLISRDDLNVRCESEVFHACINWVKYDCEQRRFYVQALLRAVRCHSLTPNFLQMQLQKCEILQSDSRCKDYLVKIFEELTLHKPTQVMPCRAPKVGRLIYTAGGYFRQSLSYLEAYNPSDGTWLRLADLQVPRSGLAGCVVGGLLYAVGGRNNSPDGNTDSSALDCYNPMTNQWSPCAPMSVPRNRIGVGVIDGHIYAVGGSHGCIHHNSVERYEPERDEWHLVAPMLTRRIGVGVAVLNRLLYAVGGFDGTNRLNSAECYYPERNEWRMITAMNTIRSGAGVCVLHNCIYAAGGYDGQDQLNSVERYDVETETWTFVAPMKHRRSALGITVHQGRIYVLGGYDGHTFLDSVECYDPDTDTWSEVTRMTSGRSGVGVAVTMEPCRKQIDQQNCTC
# sdiA: Regulatory protein SdiA (sdiA, Escherichia coli, UniProt P07026)
# Sequence of UniProt P07026 (whole entry, looked up): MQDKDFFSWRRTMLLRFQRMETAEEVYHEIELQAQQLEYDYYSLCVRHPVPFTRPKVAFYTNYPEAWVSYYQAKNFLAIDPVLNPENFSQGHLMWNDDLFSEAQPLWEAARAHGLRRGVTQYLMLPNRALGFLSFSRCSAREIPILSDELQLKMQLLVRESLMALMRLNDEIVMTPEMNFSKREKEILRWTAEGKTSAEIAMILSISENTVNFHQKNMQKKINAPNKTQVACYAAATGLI
# Uncharacterized hydrolase SAUSA300_2518: Uncharacterized hydrolase SAUSA300_2518 (Staphylococcus aureus, UniProt Q2FDS6)
# Sequence of UniProt Q2FDS6 (whole entry, looked up): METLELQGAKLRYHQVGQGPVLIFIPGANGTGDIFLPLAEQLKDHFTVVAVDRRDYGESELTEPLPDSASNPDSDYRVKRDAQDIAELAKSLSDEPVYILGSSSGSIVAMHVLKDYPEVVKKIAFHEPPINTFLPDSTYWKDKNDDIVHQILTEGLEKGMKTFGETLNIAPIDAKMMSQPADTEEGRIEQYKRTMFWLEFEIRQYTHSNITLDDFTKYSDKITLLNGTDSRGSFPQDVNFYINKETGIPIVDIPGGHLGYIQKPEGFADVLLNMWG
# Sequence of UniProt Q9H2X3 (whole entry, unmodified, looked up): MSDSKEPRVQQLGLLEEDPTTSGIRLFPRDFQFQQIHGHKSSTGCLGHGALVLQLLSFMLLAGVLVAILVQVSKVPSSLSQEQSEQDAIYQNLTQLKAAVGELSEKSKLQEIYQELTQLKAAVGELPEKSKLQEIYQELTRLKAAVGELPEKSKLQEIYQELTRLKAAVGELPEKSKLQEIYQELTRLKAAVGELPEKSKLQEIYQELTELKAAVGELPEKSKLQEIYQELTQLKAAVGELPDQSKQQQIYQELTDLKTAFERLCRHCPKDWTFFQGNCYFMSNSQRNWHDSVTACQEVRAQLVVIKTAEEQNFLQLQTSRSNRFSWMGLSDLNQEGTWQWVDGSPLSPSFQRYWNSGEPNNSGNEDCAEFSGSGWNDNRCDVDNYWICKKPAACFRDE
# Sequence of UniProt Q9Y2J8 (whole entry, looked up): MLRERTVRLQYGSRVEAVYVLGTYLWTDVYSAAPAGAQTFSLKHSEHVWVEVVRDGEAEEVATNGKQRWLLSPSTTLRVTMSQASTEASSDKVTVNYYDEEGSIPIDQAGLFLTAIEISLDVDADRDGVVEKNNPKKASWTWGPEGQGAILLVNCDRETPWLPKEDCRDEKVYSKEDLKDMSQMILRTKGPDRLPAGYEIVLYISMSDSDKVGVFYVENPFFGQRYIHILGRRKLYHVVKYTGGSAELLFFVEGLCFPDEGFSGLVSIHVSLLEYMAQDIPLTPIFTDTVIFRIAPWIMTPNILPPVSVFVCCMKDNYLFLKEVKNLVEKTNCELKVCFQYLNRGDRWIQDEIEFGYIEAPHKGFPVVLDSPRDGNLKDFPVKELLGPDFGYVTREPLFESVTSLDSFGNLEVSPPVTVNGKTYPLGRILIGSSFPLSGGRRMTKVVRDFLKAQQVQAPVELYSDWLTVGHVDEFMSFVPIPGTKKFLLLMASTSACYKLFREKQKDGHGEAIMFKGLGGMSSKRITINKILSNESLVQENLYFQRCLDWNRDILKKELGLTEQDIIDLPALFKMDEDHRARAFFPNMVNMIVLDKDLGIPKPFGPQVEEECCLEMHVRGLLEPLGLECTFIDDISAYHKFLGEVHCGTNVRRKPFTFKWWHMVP
# Sequence of UniProt P45984 (whole entry, looked up): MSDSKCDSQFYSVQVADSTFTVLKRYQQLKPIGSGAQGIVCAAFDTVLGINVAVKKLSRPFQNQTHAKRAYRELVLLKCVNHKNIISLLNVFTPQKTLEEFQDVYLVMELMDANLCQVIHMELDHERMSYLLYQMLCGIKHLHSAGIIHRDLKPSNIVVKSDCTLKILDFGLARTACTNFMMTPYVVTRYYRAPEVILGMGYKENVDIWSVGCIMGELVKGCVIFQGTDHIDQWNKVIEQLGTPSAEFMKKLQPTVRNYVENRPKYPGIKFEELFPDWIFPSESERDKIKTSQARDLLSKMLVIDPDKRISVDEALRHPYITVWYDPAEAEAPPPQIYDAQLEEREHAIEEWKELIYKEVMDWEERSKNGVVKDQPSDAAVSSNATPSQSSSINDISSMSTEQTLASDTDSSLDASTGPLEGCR
# Sequence of UniProt P21396 (whole entry, looked up): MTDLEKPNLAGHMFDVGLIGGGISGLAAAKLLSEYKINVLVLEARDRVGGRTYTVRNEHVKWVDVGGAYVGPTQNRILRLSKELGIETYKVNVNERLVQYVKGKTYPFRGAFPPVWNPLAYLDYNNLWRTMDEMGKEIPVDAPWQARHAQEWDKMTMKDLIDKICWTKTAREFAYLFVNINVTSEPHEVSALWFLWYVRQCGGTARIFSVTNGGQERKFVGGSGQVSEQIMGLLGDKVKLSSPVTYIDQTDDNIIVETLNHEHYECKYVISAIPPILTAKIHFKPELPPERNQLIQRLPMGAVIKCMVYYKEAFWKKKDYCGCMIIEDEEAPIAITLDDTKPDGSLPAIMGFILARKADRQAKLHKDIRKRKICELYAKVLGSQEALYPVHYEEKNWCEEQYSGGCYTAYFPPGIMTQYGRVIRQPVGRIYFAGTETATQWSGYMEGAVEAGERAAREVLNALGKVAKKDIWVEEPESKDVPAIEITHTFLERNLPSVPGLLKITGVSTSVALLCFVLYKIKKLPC
# Sequence of UniProt P08913 (whole entry, looked up): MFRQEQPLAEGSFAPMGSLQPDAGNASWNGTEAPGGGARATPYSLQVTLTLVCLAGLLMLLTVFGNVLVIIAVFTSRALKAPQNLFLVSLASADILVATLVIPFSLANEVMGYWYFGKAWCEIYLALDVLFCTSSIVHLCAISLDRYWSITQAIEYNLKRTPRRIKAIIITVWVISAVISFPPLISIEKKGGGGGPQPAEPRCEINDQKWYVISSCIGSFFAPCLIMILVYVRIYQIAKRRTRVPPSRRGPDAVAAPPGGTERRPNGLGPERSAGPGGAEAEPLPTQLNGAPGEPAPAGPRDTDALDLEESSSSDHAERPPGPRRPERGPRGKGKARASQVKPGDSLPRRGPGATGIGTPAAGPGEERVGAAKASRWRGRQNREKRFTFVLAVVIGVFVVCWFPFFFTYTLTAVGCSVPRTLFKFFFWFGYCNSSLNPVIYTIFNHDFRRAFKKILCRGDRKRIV
Compound,target,test,system,setting,how to read,endpoint,value
O=C(N[C@@H]1c2ccccc2C[C@H]1N1CCCC1)c1ccc(-c2ccnc3[nH]ccc23)nc1,"PRKG2 (Homo sapiens, UniProt Q13237)","binding, competition with immobilised ligand",,3 µM,,remaining binding,9.5%
O=C(N1CCCCC1)n1ccnn1,"Protein ABHD13 (Abhd13, Mus musculus, UniProt Q80UX8)","probe labelling, inhibitor, competitive ABPP-SILAC, item: Abhd13",mouse T cells,"concentration not given, 4 h, in situ, single peptide","reference: treated over DMSO, lower = more inhibition",SILAC ratio,0
CSCC[C@@H]1NC(=O)[C@H](Cc2ccccc2)NC(=O)[C@@H](NC(=O)[C@H](C)N)CSC(=O)[C@H](C(C)C)NC(=O)[C@H](Cc2ccccc2)NC1=O,"Histidine kinase AgrC (Listeria monocytogenes, UniProt A8E0G3)","agr reporter gene, agonist",,,,concentration for full activation,1 µM
CCCCCCCCCC(=O)CC(=O)Nc1ccccc1,lasR,"reporter gene, agonist",Pseudomonas aeruginosa PAO-JP2,"100 µM, plasI-LVAgfp reporter",reference: OdDHL at same concentration,agonist activity,8%
CCOC(=O)[C@@H]1Cc2c(cc([N+](=O)[O-])cc2[N+](=O)[O-])[C@H](O)[C@]12C(=O)Nc1ccc(Br)cc12,"FLT3 (Homo sapiens, UniProt P36888)","binding, competition with immobilised ligand",,0.1 µM,,remaining binding,60%
CC(O)C1CN(C(Cc2ccc3ccccc3c2)CN2CCCC2CN2CCNCC2CO)CCN1CCCC1CCCC1 (centres unmarked),Oprm1,radioligand binding,rat brain membranes,"500 nM, pH 7.5, 25 °C, together with: 0.87 nM [3H]DAMGO",,remaining binding,103 ± 8.82%
N[C@H](C(=O)N1CCCC1)C1CCN(c2nccc3c(-c4ncc(Cl)cc4Cl)cccc23)CC1,"PADI2 (Homo sapiens, UniProt Q9Y2J8)",enzyme activity,,"0.006291 µM, low-affinity site, together with: Ca2+ 0.25 mM",,kcat,1.26 s⁻¹ and 1.23 s⁻¹
COc1ccccc1-c1n[nH]c2nc(NC3CCN(C(=O)Cc4ccc(F)cc4F)CC3)ncc12,Leishmania donovani kinase LINJ.30.1580,bead binding competition,Leishmania donovani extract,10 µM,reference: vehicle,relative abundance,0.4
OB(O)c1cnn(-c2cc(Cl)ncn2)c1,"CELA1 (Sus scrofa, UniProt P00772)",pNA substrate hydrolysis,,,reference: Ki protease over Ki AmpC,selectivity ratio,288000
CS(C)(=O)=Nc1ccc(-c2ccc(-c3nc4cc(O[C@@H]5CO[C@H]6[C@@H]5OC[C@H]6O)[nH]c4cc3F)cc2)cc1,"MAP4K2 (Homo sapiens, UniProt Q12851)","enzyme activity, inhibitor",,10 µM,,inhibition,-1%
CCCCCCCCCC(=O)CC(=O)Nc1ccccc1O,lasR,"reporter gene, agonist",Escherichia coli JLD271,"10 µM, pSC11 and pJN105L plasmids",reference: OdDHL at same concentration,agonist activity,86%
C#CCOc1ccc(-c2nc(C)c(C(=O)OCC)s2)cc1/C=N/NC(=O)C=C,"Omega-amidase NIT2 (NIT2, Homo sapiens, UniProt Q9NQR4)","cysteine labelling, gel-based live-cell labelling",HEK-293T,strong ligand-dependent labelling,,labelling concentration,0.1 to 0.5 µM
CC(C)[C@H]1NC(=O)C[C@H]2/C=C/CCSSC[C@@H](NC1=O)C(=O)N[C@H](Cc1cccc3ccccc13)C(=O)NCC(=O)O2,"MAPK7 (Homo sapiens, UniProt Q13164)","enzyme activity, inhibitor",,10 µM,,inhibition,3.9%
C#CCCCCOc1ccc2c(c1)CCCN2C(=O)CCl,"V-type proton ATPase subunit B, brain isoform (Homo sapiens, UniProt P21281)","mass spectrometry profiling, item: ATP6V1B2",H460 cell lysate,"100 µM over 10 µM, UniProt P21281",reference: high over low concentration,reactivity ratio,1.42
CN(/N=C/c1ccccc1C(=O)O)c1nc(-c2ccccc2Cl)cs1,"CSNK2A1 (Homo sapiens, UniProt P68400)","enzyme activity, inhibitor",,1 µM,,inhibition,-24.2%
CC(C)CC(O)(CC(C)C)c1cn(C(=O)N2CCCC2)nn1,"Acyl-protein thioesterase 2 (Mus musculus, UniProt Q9WTL7)",,"mouse, brain",concentration not given,reference: vehicle over compound,activity-based probe labelling ratio,2.69
CC(C)[C@@H]1NC(=O)[C@H](CCC(=O)O)NC(=O)CNC(=O)[C@H]([C@@H](C)O)NC(=O)[C@H](CCC(=O)O)NC(=O)[C@H](CCC(=O)O)NC(=O)[C@H](CC(=O)O)NC(=O)[C@H](C(C)C)NC(=O)[C@H]([C@@H](C)O)NC(=O)CNC(=O)[C@H](CC(=O)O)NC(=O)[C@H](CC(N)=O)NC(=O)[C@H](Cc2ccc(O)cc2)NC1=O,KEAP1,"Keap1-Nrf2 binding, inhibitor, competitive FP",,"0.0061 µM, 30 min, together with: Nrf2 peptide probe",lower = stronger inhibition,fluorescence polarization,1.22 a.u. and 1.03 a.u.
O=C1NC(=O)c2c1c1cc(F)c[n+]3c1c1c2c2cc(O)ccc2[n]1[Ru-4]312([N]=C=S)[S+]3CC[S+]1CC[S+]2CC3 (centres unmarked),"FGFR4 (Homo sapiens, UniProt P22455)",enzyme activity,,"100 nM, human enzyme, together with: 10 µM ATP",reference: untreated,remaining activity,86%
C[C@H](NCc1ccc(-c2ccc(C(F)(F)F)cc2)cc1)C(N)=O,"PDGFRA (Homo sapiens, UniProt P16234)","cell-free assay, competition with immobilised ligand",,1 µM,,inhibition,6%
O=C(Cc1cccc([N+](=O)[O-])c1)N[C@H]1CCSC1=O,sdiA,,,,,Emax,126%
C[C@@H](O)[C@@H]1CN([C@H](Cc2ccc3ccccc3c2)CN2CCC[C@H]2CN2CCNC[C@@H]2CO)CCN1CCc1ccc(Cl)c(Cl)c1,Oprm1,radioligand binding,rat brain membranes,"500 nM, pH 7.5, 25 °C, together with: 0.87 nM [3H]DAMGO",,remaining binding,110 ± 8.82%
CCNC(=S)NN=Cc1c2ccccc2cc2ccccc12.Cc1ccc(C(C)C)cc1.[Cl-].[Cl-].[Ru+2],"Albumin (ALB, Homo sapiens, UniProt P02768)",modified Stern-Volmer,,308 K,,binding constant,13.7 ± 0.02 10⁴ M⁻¹
CC(C)[C@@H]1NC(=O)[C@H](CC(N)=O)NC(=O)CNC(=O)[C@H](CC(N)=O)NC(=O)[C@H](C)NC(=O)[C@H](CC(=O)O)NC(=O)[C@H]([C@@H](C)O)NC(=O)[C@H](CCC(=O)O)NC(=O)CNC(=O)[C@H]([C@@H](C)O)NC(=O)[C@H](CCC(=O)O)NC(=O)[C@H](CCC(=O)O)NC(=O)[C@H](CC(=O)O)NC1=O,KEAP1,"Keap1-Nrf2 binding, inhibitor, competitive FP",,"1.562 µM, 30 min, together with: Nrf2 peptide probe",lower = stronger inhibition,fluorescence polarization,0.083 a.u. and 0.192 a.u.
O=S(=O)(F)c1cccc2c1OCC2,Uncharacterized hydrolase SAUSA300_2518,"enzyme activity, inhibitor, fluorogenic substrate",,10 µM,,remaining activity,110% and 105%
CN(C)[C@H]1C[C@@]23CC[C@@]4(O2)C(=CC[C@]2(C)[C@@H](c5ccc6ccncc6c5)CC[C@H]24)C=C3[C@@H](O)[C@@H]1O,"MAPK9 (Homo sapiens, UniProt P45984)","ATP probe labelling, inhibitor, KiNativ profiling",,1 µM,,inhibition,7.9%
N=C(N)NCc1cn([C@@H]2[C@@H](OCCCl)O[C@H](CO)[C@@H](O)[C@@H]2O)nn1,"C-type lectin domain family 4 member M, extracellular domain (CLEC4M, Homo sapiens, UniProt Q9H2X3)",isothermal titration calorimetry,,,,ΔG,-6.64 kcal/mol and -6.76 kcal/mol and -6.67 kcal/mol
O=C(O)c1cccc(CP(=O)(O)O)n1,"blaNDM-1 (Klebsiella pneumoniae, UniProt C7C422)","enzyme activity, inhibitor",,together with: nitrocefin,,kon,51700 ± 10000 M⁻¹ s⁻¹
O=C(CC(=O)N[C@H]1CCOC1=O)Cc1ccccc1,lasR,"reporter gene, agonist",Pseudomonas aeruginosa PAO-JP2,"100 µM, plasI-LVAgfp reporter",reference: OdDHL at same concentration,agonist activity,0%
O=C(Nc1ccncc1)c1ccccc1OS(=O)(=O)F,Uncharacterized hydrolase SAUSA300_2518,"enzyme activity, inhibitor, fluorogenic substrate",,10 µM,,remaining activity,44.5% and 41%
CCCCCCCC(=O)N[C@H]1CCSC1=O,sdiA,,,,,Emax,120%
Cc1cc(Nc2nc(C[C@@]3(C(=O)O)CCN(Cc4cccc(Cl)c4F)[C@H](C)C3)cc(C)c2F)[nH]n1,"ADRA2A (Homo sapiens, UniProt P08913)",agonist,,10 µM,,activation,-0.63%
CCc1nnc(-c2c(OC)cc(-c3cnc4cc(-c5cnn(C)c5)ccn34)cc2OC)o1,"Maoa (Rattus norvegicus, UniProt P21396)",,,10 µM,,inhibition of specific binding,7%

# Repeated from above:
Compound,target,test,system,setting,how to read,endpoint,value
CCCCCCCCCC(=O)CC(=O)Nc1ccccc1O,lasR,"reporter gene, agonist",Escherichia coli JLD271,"10 µM, pSC11 and pJN105L plasmids",reference: OdDHL at same concentration,agonist activity,86%
C#CCOc1ccc(-c2nc(C)c(C(=O)OCC)s2)cc1/C=N/NC(=O)C=C,"Omega-amidase NIT2 (NIT2, Homo sapiens, UniProt Q9NQR4)","cysteine labelling, gel-based live-cell labelling",HEK-293T,strong ligand-dependent labelling,,labelling concentration,0.1 to 0.5 µM
